Results gathered from unrelated publications.
Each numbered part is a random draw from the data of one study; scales do not carry over between parts.

Series 1
Target: RNA binding protein fox-1 homolog 2, RRM domain, GST-SBP tag (RBFOX2, Homo sapiens, UniProt O43251-10, residues 100-194)
Method: RNA Bind-n-Seq
Molecule type: RNA
Matrix: in vitro
Tested at: 365 nM
Setting: natural RNA segment, single round, ends assumed
Baseline: no-protein control
Reading: higher = stronger binding
Endpoint: RBNS enrichment (R)
Residues (chain): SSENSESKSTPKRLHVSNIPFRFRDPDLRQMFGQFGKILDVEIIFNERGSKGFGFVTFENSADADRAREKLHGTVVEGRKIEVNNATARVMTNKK
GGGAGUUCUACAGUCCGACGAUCCUUGCGUUGAUACUUUGCCCCAGAAAGGCCUGGGAUUCAUUCUGGUUCUUAUCAGGGUGUGUCCACACUCUGCUCACAGGUGGAUCCACGGCUUUCCAGUGCGGAGAGUCUGGAAUUCUCGGGUGCCAA: 0.265
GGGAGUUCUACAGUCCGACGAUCCCUUGGUUGUGAGAUGGGUACAUUCCAAAGGAGCAGCCUGGGGGAGGGGGCAGGCUCAGCCAGCCCUUGGAGGCUCAGAGCAGCUGGCCCAGGCUCCAGCUCGCCUCCAGUGGAAUUCUCGGGUGCCAA: 0.398
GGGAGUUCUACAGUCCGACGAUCACCGCGUGUGUUGCCCCUGCCCUGGGCUCCCCGCCAUGACAUCUUCACCUUGCAGCUUGUGCUGAGACUGACCCAAGUGCAGCUAGCACUGGGACACAGAUCCUUGUCUUUGGAAUUCUCGGGUGCCAA: 0.407
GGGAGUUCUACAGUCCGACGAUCUUGCUUGCUUGCUUGCUUGCCCUUAAAGAACAGAUCAAGCCUACAUACUCCAUACACUAUACUUCAUACUACAAGCUCCAUCUGUCCUCAGAUAAUUGUCUGACUUUUUUUGGAAUUCUCGGGUGCCAA: 7.44
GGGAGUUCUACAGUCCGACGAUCUCUUCACUGUCUGUUGUUUACCUACCGUAGCUUUUUACCGUUCACUUCCCCUUCCAACUAUGUCCAGAUGUGCAGGCUCCUCCUCUCUGGACUUUCUCCAAAGGCACUGAUGGAAUUCUCGGGUGCCAA: 0.904
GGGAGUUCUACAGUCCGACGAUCUCUAAGUCCAGGACCUCUACCCUGAGGACUCAGCCCUUAGCUCUGGAGAAGGAACAUAUUUGAUAGAUUUUUCUUAACAAGUUAAAAAAUGCAGCUCCUUUCUGUGCUGGUGGAAUUCUCGGGUGCCAA: 0.342
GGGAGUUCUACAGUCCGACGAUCGCGUAGCAUUGUAAGCGCUGAAGUAUAUAUUUUCUUCAGUAAGUCUCUUUAAAAUUUCAAGUGUUAUCAUGAUUGUUUAUAUGAAUGUAGAACACCUCGGUAUUUCUUUUUGGAAUUCUCGGGUGCCAA: 0.63
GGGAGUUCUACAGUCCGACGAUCCCAUUUGCUUUAUUUGUGCAAAUGCCAGGGUUGGUUUUUAUUUUUAUUUUUGCUAUUUACCUAAAAAGAAAAAGAGACAAUGCUUCAGUCAACUGCUUUUUUAUUUAAAAUGGAAUUCUCGGGUGCCAA: 0.851
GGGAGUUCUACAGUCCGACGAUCCCUAAGGGACCUCGCUCCAGCUGGUUGGGCACAGCAGGCUCCUGCCCUGGUGCUUUCAGCUUCCCCCAGCUAGGCCUGACCCUGGCUCUUGCUGUAGGCCACAUGCUGAAUGGAAUUCUCGGGUGCCAA: 0.236
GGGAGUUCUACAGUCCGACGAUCCUACCGCCUGUGUGACUGAGCUGCCUCCUGAGGCAGUGCCACAGCCGGGACUGGAGUCCCUGGGCCCUCAACACUGGAUGCAAAUGUGUUACACUGGAGCCUGCUGCAGGUGGAAUUCUCGGGUGCCAA: 2.75
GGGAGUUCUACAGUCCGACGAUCGGGCCUCGAGCUGUCAGUCAUCAUGGUGCUAUCCUCUGAACCCCUCAGCUGCCACUGCAACAGUGGGCUUAAGGGUGUCUGAGCAGGAGAGGAAAGAUAAGCUCUUCGUGUGGAAUUCUCGGGUGCCAA: 0.272
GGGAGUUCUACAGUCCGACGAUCUCAACAGAAGUAACUGGUAUAUUCUUAGUAACUUUUCUAUGAACUCUUCAAAAAUGGUCACAGAAUGCCUUUUAAAACAUUGUAUAUAAUCUUCACUGUUUCACCAUCUAUGGAAUUCUCGGGUGCCAA: 0.429

Series 2
Target: Histone acetyltransferase KAT6A, winged helix 1, GST fusion (KAT6A, Homo sapiens, UniProt Q92794, residues 1-85)
Method: protein binding microarray
Molecule type: double-stranded DNA, one strand shown
Matrix: in vitro
Tested at: not given
Setting: 8-mer, flanks averaged, mean of 2 arrays, mostly near background
Baseline: not given
Reading: higher = stronger binding
Endpoint: E-score
Construct (chain): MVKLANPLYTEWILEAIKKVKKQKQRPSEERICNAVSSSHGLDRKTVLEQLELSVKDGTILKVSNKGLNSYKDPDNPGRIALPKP
CAATAACA: -0.102
CGTTGGAC: -0.0747
CCTGTCTC: -0.185
ACGTGCTG: -0.141
AGGTCGTA: -0.133
CAGGACTG: -0.114
TAGGTTAA: -0.132
CATTAACA: -0.202
AGCGGGTA: 0.263
TCGGCAAA: 0.116
ATTAGCAA: -0.13
CTTCAAAA: -0.304
AAGCGTCA: -0.00911
AGCTAGTG: -0.202
CAGTGTCC: -0.0142
CGTCCTGC: -0.0222

Series 3
Target: Sal-like protein 4, full length isoform A (SALL4, Homo sapiens, UniProt Q9UJQ4, residues 1-1053)
Sequence of UniProt Q9UJQ4 (whole entry, looked up): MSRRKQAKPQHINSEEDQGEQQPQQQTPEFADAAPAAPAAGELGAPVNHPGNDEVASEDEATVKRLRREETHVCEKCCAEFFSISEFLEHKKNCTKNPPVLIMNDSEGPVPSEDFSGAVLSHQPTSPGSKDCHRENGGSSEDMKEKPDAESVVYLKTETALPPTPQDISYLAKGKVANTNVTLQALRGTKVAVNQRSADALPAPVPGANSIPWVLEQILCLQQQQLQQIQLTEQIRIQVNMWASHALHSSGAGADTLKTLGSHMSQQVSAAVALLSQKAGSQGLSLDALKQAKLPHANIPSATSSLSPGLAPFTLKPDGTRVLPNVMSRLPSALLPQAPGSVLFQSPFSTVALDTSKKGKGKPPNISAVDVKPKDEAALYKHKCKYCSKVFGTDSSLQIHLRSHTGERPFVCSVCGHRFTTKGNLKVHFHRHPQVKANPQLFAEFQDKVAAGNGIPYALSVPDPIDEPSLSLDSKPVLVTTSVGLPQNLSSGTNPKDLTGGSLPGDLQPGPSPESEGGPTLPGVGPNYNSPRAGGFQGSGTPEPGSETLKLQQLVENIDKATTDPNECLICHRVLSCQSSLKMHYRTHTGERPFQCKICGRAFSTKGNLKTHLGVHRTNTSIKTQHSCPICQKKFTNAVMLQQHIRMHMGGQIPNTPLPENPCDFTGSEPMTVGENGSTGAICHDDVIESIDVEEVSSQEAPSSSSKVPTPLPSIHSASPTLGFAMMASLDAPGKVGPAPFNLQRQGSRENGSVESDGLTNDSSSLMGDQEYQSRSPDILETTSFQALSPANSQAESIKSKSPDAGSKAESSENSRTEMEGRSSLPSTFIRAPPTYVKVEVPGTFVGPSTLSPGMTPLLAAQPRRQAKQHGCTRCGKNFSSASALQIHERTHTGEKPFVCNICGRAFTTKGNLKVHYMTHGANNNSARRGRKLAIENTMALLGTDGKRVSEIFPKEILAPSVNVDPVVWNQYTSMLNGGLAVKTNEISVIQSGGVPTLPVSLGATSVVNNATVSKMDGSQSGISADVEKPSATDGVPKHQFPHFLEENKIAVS
Method: universal PBM
Molecule type: double-stranded DNA, one strand shown
Matrix: in vitro
Tested at: 600 nM
Setting: 8-mer, flanks averaged, mean of replicates
Reading: higher = stronger binding
Endpoint: E-score
CACACACC: -0.226
AAAAAATG: 0.382
AGCCTAAC: -0.059
GACTTTCA: 0.0161
CGAGTTCC: -0.0578
GATACCAA: 0.108
GTGCCTAA: -0.0359
ATAGGTGA: 0.105
GCCGCTGA: -0.223
AAAACTAG: 0.149
GAGACCTA: -0.147
ACATAGGC: 0.105
GTGTCCTA: -0.0946
GTCGACTA: 0.0838
GTAGCATA: 0.166
AGTCAAAT: 0.28
AACCAAAA: 0.254
TCTACCCA: -0.136
AGAGATCA: 0.00982
CTATTGGC: -0.0066

Series 4
Target: Prothrombin, mature alpha-thrombin (F2, Homo sapiens, UniProt P00734)
Method: aptamer microarray, sandwich
Molecule type: DNA with 2'F-ANA
Matrix: in vitro
Tested at: 200 nM
Setting: whole 15-mer aptamer, many near background
Together with: Cy3 exosite-II aptamer, 400 nM
Reading: higher = stronger binding
Endpoint: mean fluorescence intensity
Oligonucleotide: GGTTGGTGTGGTTGG
2'F-ANA at 2 6 8 9 10 11 14: 81.3 a.u.
2'F-ANA at 2 4 5 8 9 12 13: 93.2 a.u.
2'F-ANA at 3 6 8 10 11 13: 440 a.u.
2'F-ANA at 1 2 5 7 8 9 10 14: 65.6 a.u.
2'F-ANA at 2 3 5 6 7 8 9 10 11 13 15: 52.6 a.u.
2'F-ANA at 3 4 5 8 9 10 11 14: 73.8 a.u.
2'F-ANA at 4 7 8 9 10 15: 96.6 a.u.
2'F-ANA at 2 3 5 6 8 11 12 15: 166 a.u.
2'F-ANA at 2 3 4 6 8 9 10: 222 a.u.
2'F-ANA at 3 5 7 10 11 12 13: 63.7 a.u.
2'F-ANA at 1 2 6 7 8 9: 183 a.u.
2'F-ANA at 3 4 5 6 7 11 12 13 15: 98 a.u.
2'F-ANA at 3 4 7 8 9 11 14: 416 a.u.
2'F-ANA at 1 3 4 5 7 9 10 11 12 13 15: 47.6 a.u.
2'F-ANA at 2 3 4 6 9 12: 771 a.u.
2'F-ANA at 1 2 3 4 6 15: 223 a.u.
2'F-ANA at 1 7 8 9 13: 159 a.u.
2'F-ANA at 1 3 4 6 9 14: 78.1 a.u.
2'F-ANA at 1 2 4 7 8 9 12 13 14 15: 56.1 a.u.
2'F-ANA at 1 3 4 6 10 11 14: 58.6 a.u.
2'F-ANA at 2 3 5 6 7 9 10 11 13 15: 52.7 a.u.
2'F-ANA at 3 5 6 9 10 11 12 13 14 15: 63.6 a.u.
2'F-ANA at 4 5 7 8 11 15: 59.9 a.u.
2'F-ANA at 1 4 6 7 8 9 11 12 14: 59.3 a.u.
2'F-ANA at 1 3 9 11 13 15: 199 a.u.

Series 5
Target: Interferon regulatory factor 7, full length, phosphomimetic (IRF7, Homo sapiens, UniProt Q92985, residues 1-503, S101K/S471D/S472D/S475D/S476D/S477D/S483D/S484D/S487D)
Sequence of UniProt Q92985 (whole entry, unmodified, looked up): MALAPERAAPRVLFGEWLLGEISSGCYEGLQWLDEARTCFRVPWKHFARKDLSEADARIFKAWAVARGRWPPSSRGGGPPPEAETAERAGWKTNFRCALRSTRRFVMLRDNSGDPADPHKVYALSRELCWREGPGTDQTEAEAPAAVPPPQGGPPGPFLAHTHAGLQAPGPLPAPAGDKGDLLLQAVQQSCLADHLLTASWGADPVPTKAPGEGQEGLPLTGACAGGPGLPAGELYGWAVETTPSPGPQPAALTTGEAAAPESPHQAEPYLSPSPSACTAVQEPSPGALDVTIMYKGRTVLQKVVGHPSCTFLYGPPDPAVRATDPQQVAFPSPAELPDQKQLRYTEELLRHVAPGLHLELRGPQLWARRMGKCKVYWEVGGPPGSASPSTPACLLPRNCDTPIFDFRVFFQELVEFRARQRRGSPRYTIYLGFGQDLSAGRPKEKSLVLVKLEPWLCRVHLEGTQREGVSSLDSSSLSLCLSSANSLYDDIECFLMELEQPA
Method: protein-binding microarray
Molecule type: double-stranded DNA, one strand shown
Matrix: in vitro
Tested at: 250 nM
Setting: 60-bp whole probe
Together with: salmon DNA 0.4 mg/ml
Baseline: random background probes
Reading: higher = stronger binding
Endpoint: log fluorescence
Constant ends, left off below: GCCTAGCAC … GTCTTGATTCGCTTGACGCTGCTG
TATATTATATATTTATGTATGTGCTAG: 0.793 z-score
TTAGATGTCAGTTCCGATTAGTGCTAG: 0.611 z-score
TCGGTGATCAGTCTGATGGTGTGCTAG: -0.743 z-score
GACGGTTTGCTTTCCCTGACGTGCTAG: 0.76 z-score
GACGGGATCGGGTTTCGGGACGTGCTA: 2.56 z-score
GACGGTTTCGACTATCGGAACGTGCTA: 7.16 z-score
TTAGGTTTCCCTATCCTTTAGTGCTAG: 2.08 z-score
TCACAATTCTCTTTTCAACTGTGCTAG: 0.823 z-score
TCTGTCCTGATAGCCCTGGCGTGCTAG: -0.241 z-score
GACGATATCGGGACTGGAGCCGTGCTA: -0.493 z-score
TTAGAACTGAATCTCGATTAGTGCTAG: 0.201 z-score
GACGGTCTCCTTAACCTGACGTGCTAG: -0.027 z-score
TTACATTTCAGTCTCGATTAGTGCTAG: 2.42 z-score
GCTGCCCTCACCATCATCCTGTGCTAG: -0.344 z-score
TTAGATTTCAGTATCGATTGGTGCTAG: 1.29 z-score
GACGGTTTCCTACTGCTGAGGTGCTAG: 1.42 z-score
GAAGGTATCCTTATCCTGACGTGCTAG: 0.114 z-score
TTAGATATCGGGTTTCGACTAGTGCTA: 2.41 z-score
GAAGATTTCGGGTATCGAGACGTGCTA: 0.907 z-score
GACGGTTCCCTTATCCTGACGTGCTAG: 0.982 z-score
GCCGATTTCGGGTTTCGAGACGTGCTA: 4.87 z-score
TTAGGTATCCTATTCCTTTAGTGCTAG: 0.812 z-score
TTAGGTATCGCTATCGGTTAGTGCTAG: 0.873 z-score
TTACAGATGTTTTTCATTTTGTGCTAG: 1.09 z-score
TTAGCTTTCGGTATCGGTTAGTGCTAG: 2.54 z-score

Excerpt of the above (series 5):
TTAGATTTCAGTATCGATTGGTGCTAG: 1.29 z-score
GACGGTTTCCTACTGCTGAGGTGCTAG: 1.42 z-score
GAAGGTATCCTTATCCTGACGTGCTAG: 0.114 z-score
TTAGATATCGGGTTTCGACTAGTGCTA: 2.41 z-score
GAAGATTTCGGGTATCGAGACGTGCTA: 0.907 z-score
GACGGTTCCCTTATCCTGACGTGCTAG: 0.982 z-score
GCCGATTTCGGGTTTCGAGACGTGCTA: 4.87 z-score
TTAGGTATCCTATTCCTTTAGTGCTAG: 0.812 z-score
TTAGGTATCGCTATCGGTTAGTGCTAG: 0.873 z-score
TTACAGATGTTTTTCATTTTGTGCTAG: 1.09 z-score
